# Experimental data from different studies.
# Parts stem from different laboratories: compare values within a part only.

# Series 1 — method: protein-binding microarray; form: double-stranded DNA, one strand shown; matrix: in vitro; concentration: 250 nM; notes: 60-bp whole probe; added: salmon DNA 0.4 mg/ml; baseline: random background probes; direction: higher = stronger binding; all sequences stand within: GCCTAGCAC … GTCTTGATTCGCTTGACGCTGCTG
# Target: Interferon regulatory factor 5, full length, phosphomimetic (IRF5, Homo sapiens, UniProt Q13568-2, residues 1-514, K96S/S451D/S453D/S456D/S462D)
Sequence,log fluorescence
GACGGATTCGGGTATCGGGACGTGCTA,0.567 z-score
TTAGAAATCAGTATCGATTAGTGCTAG,7.88 z-score
GACGATTTCGGGTTTCTAGACGTGCTA,3.75 z-score
TTAGGATTGGGTATCGGTTAGTGCTAG,5.05 z-score
TTAGGACTGGACTATCTGTTAGTGCTA,0.695 z-score
TTAGATTTCGGTATCGATTAGTGCTAG,10.2 z-score
GACGGTATTCTACTGCTGACGTGCTAG,0.0929 z-score
TTAGGACTGGGGACTTGGTTAGTGCTA,-0.413 z-score
AGACTTTTTTCAGACCTGTCGTGCTAG,0.767 z-score
TTAGATTCCAGTTTCGATAAGTGCTAG,8.65 z-score
TTAGCTATCCTACTGCTTTAGTGCTAG,-0.0192 z-score
GACGATTTCAGTGCCGAGACGTGCTAG,0.778 z-score
AGTGGCCCAGGGCATCCCCTGTGCTAG,-0.594 z-score
TTAGGTATCGGTTTCGGATAGTGCTAG,9.38 z-score
CGGATGATCTCTCTGGGCAAGTGCTAG,-0.288 z-score
GACGGACTGGGGTATCTGGACGTGCTA,-0.189 z-score
GACGGTATCGGACGGGGGACGTGCTAG,1.62 z-score
GACGGACTGGGTATCGCGACGTGCTAG,-0.72 z-score
TTAGGTTTCCTACTACTTTAGTGCTAG,0.655 z-score

# Series 2 — method: protein binding microarray; form: double-stranded DNA, one strand shown; matrix: in vitro; concentration: not given; baseline: not given; direction: higher = stronger binding
# Target: Histone acetyltransferase KAT6A, both winged helices, GST fusion (KAT6A, Homo sapiens, UniProt Q92794, residues 1-181)
# Notes: 8-mer, flanks averaged, mean of 2 arrays, mostly near background
# Construct (chain): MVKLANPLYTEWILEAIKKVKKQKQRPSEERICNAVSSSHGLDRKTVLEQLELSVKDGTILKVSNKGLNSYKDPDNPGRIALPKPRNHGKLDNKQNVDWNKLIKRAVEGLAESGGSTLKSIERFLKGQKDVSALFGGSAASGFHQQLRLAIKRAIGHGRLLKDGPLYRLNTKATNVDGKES
Sequence,E-score
CGATCAAG,0.0544
CTTCCTGC,-0.0926
ACTATACG,0.128
AAAGCCAG,-0.17
GCACCGTA,0.21
AATACCGG,0.106
AGTGCATG,-0.0976
CCCCGAAC,0.0315
GTTGGACA,-0.00736
ACATAACA,-0.0379
TAAGGGTA,-0.19
AGTAGACG,-0.0924
GGAGTAAC,-0.0195
ACGCGCCG,0.324
ACCTCACT,-0.133
ACTGCGCT,0.151
CTGCCATC,-0.138
ATATCTGC,-0.0131
AAAGTGTT,-0.0963
AAGATTCT,-0.13
CCTGAACA,-0.0553
GTTGAAAA,-0.128
AGAAAAGG,-0.343
CTATAAGC,0.0487
ATGAGCTG,-0.0696

# Series 3 — method: Spec-seq; form: double-stranded DNA, one strand shown; matrix: in vitro; concentration: not given; notes: whole probe, mean of replicates; baseline: not given; direction: lower = stronger binding; all sequences stand within: GAGTCGTCTCGTCAGCAC … CCGTAGAGCACTCAGGTC
# Target: POU, POU domain (Salpingoeca helianthica)
# Construct (chain): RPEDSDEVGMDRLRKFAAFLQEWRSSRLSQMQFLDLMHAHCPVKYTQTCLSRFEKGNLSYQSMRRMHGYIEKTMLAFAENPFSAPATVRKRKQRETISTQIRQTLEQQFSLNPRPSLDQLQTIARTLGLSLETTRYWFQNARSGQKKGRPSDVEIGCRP
Sequence,relative binding energy [ln ratio]
TCACTAAT,0.371
CTGCTAAT,0.697
ATCCGTAT,1.31
ATCGTAAT,0.167
ATGCATGA,1.18
ATGACAAT,1.15
ATGCCTTC,1.32
ATGCCACT,1.23
GGAATAAT,0.568
ATATCAAT,1.07
ATTTCAAT,0.633
ATGCTGTC,1.12
ATGCCCTA,1.27
ATGCCACC,0.973
ATTATCAT,0.43
CGGATAAT,0.377

# Series 4 — method: RNA Bind-n-Seq; form: RNA; matrix: in vitro; concentration: not given; baseline: input RNA pool; direction: higher = stronger binding
# Target: RING finger protein unkempt homolog, zinc fingers 1-6, GST-SBP tag (UNK, Homo sapiens, UniProt Q9C0B0, residues 30-357)
# Chain of UniProt Q9C0B0 (30-357, looked up): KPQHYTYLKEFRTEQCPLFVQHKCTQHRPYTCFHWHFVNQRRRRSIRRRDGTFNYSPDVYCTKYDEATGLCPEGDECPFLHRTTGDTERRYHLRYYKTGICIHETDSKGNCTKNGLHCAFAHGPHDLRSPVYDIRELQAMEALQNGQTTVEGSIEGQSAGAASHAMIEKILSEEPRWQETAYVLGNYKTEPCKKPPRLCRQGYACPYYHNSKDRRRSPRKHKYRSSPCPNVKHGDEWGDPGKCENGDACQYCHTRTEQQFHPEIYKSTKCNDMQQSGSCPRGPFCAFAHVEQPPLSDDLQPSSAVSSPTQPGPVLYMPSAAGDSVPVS
# Notes: RNA with constant flanks, human and mouse sites, ends assumed
# All sequences stand within: GGGAGUUCUACAGUCCGACGAUC … CAACAGAGGAUUGAGCAUCA
Sequence,bound/input enrichment [ratio]
GUGACCCUGAUGAUGGAUGCCACCAAUAUGCCAGCUGUCAAAGCCAUCAUAUAUCAGUAUAUGGAAGAGAUUUAUCAUAGAAUCCCCGACUCAGACCCAUCUUCUAGCAAAACAAGGCAG,0.385
AAGACAACUUCUAUUGAAGUAUUUAUUUUACAAAGAUGAUUUUGUGUUUACCUGUGUUCACUUUGUUUCAUGUUGUUGCCACUGUUGGCUGCUAUUGGAGUCUGAUGGAGGGGUCCUUUG,0.31
GGAAUAUUCAUUGUGCUGAAUAUUACCCUUGUGUUUGCAGCUGUAUUUAAACUUGAAACAGAUAGAACUGUAUGGCCCUUGAUAAGAAUCUAUCGGGGUGGCUUUCUUCUGAUUGAAUUC,0.107
UUUCUGGUAAAUUCAUGUCAGUAAUUUGUUGAAGAGUUAACAAGAAAAGGUCUUUCUAGAUUGUGUCUAAGAUGAAAUAAAAUGUAACUUUUGCUGCAGUGGUAUGUUUCUUUUGGAGUA,0.234
AAUGUUCUCGAUGCCAAUCUCUGCUUGAAAGGAGAAGACUUGGAUUCUCAGGUUGGAGUAAUAGAUUUUUCCCUCUACCUUAAGGAUGUGCAGGAUCUUGAUGGUGGCAAGGAGCAUGAA,0.421
UUAGCUUUGUUAAAUGUAGCAACUCAGGGAGUUCAUUUAUGGGACUUGCAAGACAGAGUUUUAGUAAGAAAGUAUCAAGGUGUUACACAAGGGUUUUAUACAAUUCAUUCAUGUUUUGGA,1.44
AUUGAUGAGAUCCAUAAUGAUGAUGGUGUGUGGCUGAGGCUGAAUGAUGAGACAAUAAAGAAGUAUGUCCCUAACAUGAAUGGUUACACUGAAGCCUGGUGCCUCUCUUUUAAUCAACAU,0.148
GAGAUGUUUCAAACCUUGAUUCAAAAAGUCUGGGUCCCCAUGAAACCCUACUAUACCCAGGUUUACCAGGAAAUUUGGGUAGGAGUGGGGUUAAUGAGCCUCAUCGUAUAUAAAAUCAGG,0.295

# Repeated from above (series 2):
Sequence,E-score
GTTGAAAA,-0.128
GGAGTAAC,-0.0195
CTATAAGC,0.0487
AGAAAAGG,-0.343
AGTAGACG,-0.0924
TAAGGGTA,-0.19
AGTGCATG,-0.0976
